Results collected from several papers.
Protocols differ between the studies behind these lines. “And” joins repeats or separate records; there may be more than shown. Numbers after ± are the reported error. ≈ marks a conversion by molar mass, not a printed value.

`O=c1c(O)c(-c2ccc(O[C@@H]3O[C@H](CO)[C@@H](O)[C@H](O)[C@H]3O)c(O)c2)oc2cc(O)cc(O)c12` — result for “DPPH radical scavenging”: 4.04 trolox equivalents.
`Cc1nc(Nc2ccc(CC(=O)O)cc2)nc(Nc2ccc(F)c(C(F)(F)F)c2)c1C` — result for TUNEL-positive cells: “decreased” (C57BL/6J mice, high-fat diet, liver; intraperitoneal, 0.3 mg/kg daily, 60% fat diet 12 weeks, dosed last four; baseline: vehicle).
`CCCCC1(CCCC)CN(c2ccccc2)c2cc(SC)c(OCC(=O)N[C@@H](C(=O)NCC(=O)O)c3ccccc3)cc2S(=O)(=O)C1` gave a serum LDL-C of 73.8 mg/dL (measured: LDL cholesterol; human, serum; 20 mg once daily, day 7).
`CCSc1nc2ccccc2n1Cc1nnc(-c2cc(OC)c(OC)c(OC)c2)o1` gave an EC50 of 0.24 ± 0.01 µg/mL (≈ 0.563 µM) (relaxation; isolated rabbit jejunum; spontaneous contractions).
`Clc1cc2c(cc1Cl)Oc1cc(Cl)c(Cl)cc1O2`: “number of changed metabolites” 432 (untargeted metabolomics; female Sprague-Dawley rat, liver extract; dose not given; baseline: vehicle).
The EC50 of `CCSc1nc2ccccc2n1Cc1nnc(-c2ccc(Cl)cc2)o1` is reported as 0.45 ± 0.08 µg/mL (≈ 1.21 µM) (relaxation, calcium antagonist; isolated rabbit jejunum; together with: 80 mM K+ contraction).
Under “decrease in IAUC”, `CNC(=O)c1c(C)oc2cc(Oc3ccnc4cc(OCCN5CCOCC5)ccc34)ccc12` is recorded as 22.6% (DCE-MRI; human, tumour; 4 mg twice daily, day 2).
`CCSc1nc2ccccc2n1Cc1nnc(-c2ccc(OC)cc2)o1` gave an EC50 of 0.46 ± 0.05 µg/mL (≈ 1.26 µM) (relaxation, calcium antagonist; isolated rabbit jejunum; together with: 80 mM K+ contraction).
Under “best overall response”, `COc1ncc(-c2nc3c(n2C(C)C)[C@H](c2ccc(Cl)cc2)N(c2cc(Cl)cn(C)c2=O)C3=O)c(OC)n1` is recorded as 54.9% (antileukemic activity, measured: treatment failure, resistant disease; human, acute myeloid leukaemia; dose not given, all patients, IWG criteria).
`Cc1cn(-c2cc(NC(=O)c3ccc(C)c(Nc4nccc(-c5cccnc5)n4)c3)cc(C(F)(F)F)c2)cn1` gave an ADCS-ADL score of 57.8 ± 12.2 (Alzheimer's disease patients; dose not given, baseline, group mean; direction not given).
For `[131I-].[Na+]`, “patients with improved disease control” read 85% (human, papillary thyroid carcinoma; concentration not given, high-dose radioiodine therapy).
`C[C@]1(CO)Cc2ncn(-c3ccc(C#N)c(Cl)c3)c2C(=O)O1`: “urinary sodium excretion 0-24 h” 163 mmol (Chinese subjects; 20 mg single dose).
For `CCSc1nc2ccccc2n1Cc1nnc(-c2ccc([N+](=O)[O-])cc2)o1`, the EC50 was 0.39 ± 0.05 µg/mL (≈ 1.02 µM) (relaxation, calcium antagonist; isolated rabbit jejunum; together with: 80 mM K+ contraction).
For `C[C@]12CC[C@H](O)CC1=CC[C@@H]1[C@@H]2CC[C@]2(C)C(n3cnc4ccccc43)=CC[C@@H]12.Cl`, “tumour growth inhibition” read 80.3% (mouse CWR22Rv1 xenograft; oral, 24 mg/kg once daily, 16 days, 5 days per week).
Under “log2 fold change”, `CC[C@H](C)[C@@H]1NC(=O)[C@@H]2CCCN2C(=O)[C@H](CC(C)C)NC(=O)[C@H](CC(C)C)NC(=O)CNC(=O)[C@@H](NC(=O)[C@@H](NC(=O)[C@H](CC(=O)O)NC(=O)CNC(=O)[C@@H](NC(=O)[C@H](C)NC(=O)CNC(=O)[C@H](CCCCN)NC(=O)[C@H](CC(C)C)NC(=O)[C@H](CC(C)C)NC(=O)[C@H](CCCCN)NC(=O)CNC(=O)[C@@H](NC(=O)[C@@H](N)CC(C)C)C(C)C)C(C)C)C(C)C)CSSC[C@@H](C(=O)O)NC1=O` is recorded as 1.4 (RNA-seq, measured: Trim43a mRNA; mouse traumatic brain injury, frontal cortex and hippocampus; dose not given; baseline: TBI plus compound vs TBI).
With `C[C@]12CC[C@H](O)C[C@H]1CC[C@@H]1[C@@H]2CC[C@]2(C)[C@@H](c3ccc(=O)oc3)CC[C@]12O` the tumour volume was 25.9 mm3 and 26.4 mm3 and 28.6 mm3 and 32.2 mm3 and 43.6 mm3 and 35.6 mm3 and 30 mm3 (female nude mouse LCC2 xenograft; 0.5 mg/kg, day 3, tamoxifen-resistant).
`C[C@H](N)Cn1ncc2ccc3c(c21)CCCO3.Cl`: “maximum DOM-lever responding” 100% (agonist, drug discrimination; rhesus monkey trained on DOM; s.c., 0.1 mg/kg).
For `CC(C)C1CCC(N2CCC(N3C(=O)C(=O)c4ccccc43)CC2)CC1` (centres unmarked), “mean arterial pressure change” read “decreased” (conscious Sprague-Dawley rat; intravenous bolus, 100 nmol/kg).
For `CCSc1nc2ccccc2n1Cc1nnc(-c2cccc(OC)c2O)o1`, the EC50 was 0.29 ± 0.06 µg/mL (≈ 0.758 µM) (relaxation, calcium antagonist; isolated rabbit jejunum; together with: 80 mM K+ contraction).
`C[C@H]1O[C@@H](O[C@H]2CC[C@@]3(C)[C@@H](CC[C@]4(C)[C@@H]3C=C[C@]35OC[C@@]6(CCC(C)(C)C[C@H]63)[C@@H](O)C[C@]54C)[C@]2(C)CO)[C@H](O)[C@@H](O[C@@H]2O[C@H](CO)[C@@H](O)[C@H](O)[C@H]2O)[C@H]1O`: “liver to body weight ratio” 4.86% and 5.62% and 5.76% and 6.43% and 5.81% and 5.99% (mouse, ethanol-fed, hepatic SIRT1 knockdown; dose not given, high dose).

Some of these lines once more:
`C[C@H](N)Cn1ncc2ccc3c(c21)CCCO3.Cl`: “maximum DOM-lever responding” 100% (agonist, drug discrimination; rhesus monkey trained on DOM; s.c., 0.1 mg/kg).
For `CC(C)C1CCC(N2CCC(N3C(=O)C(=O)c4ccccc43)CC2)CC1` (centres unmarked), “mean arterial pressure change” read “decreased” (conscious Sprague-Dawley rat; intravenous bolus, 100 nmol/kg).
Under “decrease in IAUC”, `CNC(=O)c1c(C)oc2cc(Oc3ccnc4cc(OCCN5CCOCC5)ccc34)ccc12` is recorded as 22.6% (DCE-MRI; human, tumour; 4 mg twice daily, day 2).
